Results gathered from unrelated publications.
Numbered parts are unrelated; each lists some results of a single study. Substitutions count along the parent as printed.

Block 1 — target: CRIPT, C-terminal peptide; method: DHFR complementation, deep sequencing; sample: yeast; relative to: wild type; direction: higher = weaker binding
Notes: single substitutions, model-inferred values
Starting sequence: ERBIN, PDZ domain 1 (human); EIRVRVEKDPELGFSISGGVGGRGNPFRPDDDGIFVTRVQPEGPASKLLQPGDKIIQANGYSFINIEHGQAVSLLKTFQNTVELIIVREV; partner TKNYKQTSV
Under “binding free energy change”, `L75W` is recorded as 2.55 kcal/mol.
For `D53Q`, “binding free energy change” read 0.374 kcal/mol.
`I85D`: “binding free energy change” -0.0415 kcal/mol.

Block 2 — method: DHFR PCA, deep sequencing; sample: yeast; added: (+)-ABA 4.8 µM; relative to: wild-type fitted maximum; direction: higher = stronger binding
Target: ABI1, truncated, D143A, DHFR fusion (Arabidopsis thaliana)
Notes: methotrexate growth selection, single substitutions
Starting sequence: PYL1, truncated, DHFR fusion (Arabidopsis thaliana); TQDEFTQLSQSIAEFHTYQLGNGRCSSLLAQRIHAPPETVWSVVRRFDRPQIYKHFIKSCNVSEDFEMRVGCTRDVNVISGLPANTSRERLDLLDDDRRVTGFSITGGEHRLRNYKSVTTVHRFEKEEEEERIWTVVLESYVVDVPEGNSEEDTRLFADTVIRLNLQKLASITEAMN
Under “relative binding score”, `T39A` is recorded as 66.1%.
For `V76F`, “relative binding score” read -2.3%.
`Q31N`: “relative binding score” 9.02%.

Block 3 — target: CCNE1, cyclin fold, Cln2 fusion (human); method: yeast growth competition, sequencing; sample: yeast; notes: strong parent motif; relative to: not given; direction: higher = stronger binding
Starting sequence: BRCA2 docking peptide (human); PSIKRNLLNEFDR; partner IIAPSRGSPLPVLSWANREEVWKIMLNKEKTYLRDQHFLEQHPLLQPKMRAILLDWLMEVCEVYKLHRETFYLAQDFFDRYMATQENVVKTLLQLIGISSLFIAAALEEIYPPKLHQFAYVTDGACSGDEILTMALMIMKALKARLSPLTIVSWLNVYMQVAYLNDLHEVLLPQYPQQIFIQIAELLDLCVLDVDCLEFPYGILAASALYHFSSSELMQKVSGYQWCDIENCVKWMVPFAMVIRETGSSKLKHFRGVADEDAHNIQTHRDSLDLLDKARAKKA
Under “normalised enrichment score”, `PSIYRNLLNEFDR [K4Y]` is recorded as 0.0706.
`HSIKRNLLNEFDR [P1H]`: “normalised enrichment score” 2.54.
Under “normalised enrichment score”, `PSIKRNLLNIFDR [E10I]` is recorded as 1.23.
`PSIKRNLKNEFDR [L8K]` — result for “normalised enrichment score”: 0.071.

Further values, each from its own experiment
`PhoQ, residues 284 288 289 292 302 303 ALVSVA` gave a fold induction of 19.3 (PhoP, residues 12 14 15 18 19 VQGLL (Escherichia coli, UniProt P23836); Sort-seq, item: YFP reporter; E. coli; PhoQ-PhoP variant library, added: 10 µM Mg2+; relative to: high Mg2+ state, higher = stronger signaling).

Excerpt of the above (block 1):
For `D53Q`, “binding free energy change” read 0.374 kcal/mol.
